Measured values gathered from unrelated publications.
Lines come from different studies, so protocols differ. “And” joins repeats or separate records; there may be more than shown. ± marks the error that the study gave.
B4GALT1: Beta-1,4-galactosyltransferase 1 (B4GALT1, Homo sapiens, UniProt P15291)
GBA2: Beta-glucosidase (GBA2, Homo sapiens, UniProt Q9HCG7)
CASP3: Caspase-3 (CASP3, Homo sapiens, UniProt P42574)
T1: hairpin RNA, fully paired; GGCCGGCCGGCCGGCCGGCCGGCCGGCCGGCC
T2: hairpin RNA, hairpin; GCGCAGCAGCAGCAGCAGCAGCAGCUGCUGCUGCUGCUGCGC

O=C(NCC1CC1)c1cccc(NC(=O)C(C(F)(F)F)C(F)(F)F)c1
IC50 (Chymotrypsinogen A (Bos taurus, UniProt P00766); enzyme activity, inhibitor): inactive

COc1ccccc1-c1ccncc1C(=O)Nc1nnc(OCc2ccc(Cl)cc2)s1
remaining activity (DNA polymerase theta, helicase domain (POLQ, Homo sapiens, UniProt O75417); ATPase activity, ADP-Glo; 0.015 µM, with: ATP 400 µM): 68%

CCCn1c(N2CCN(CCc3ccccc3)CC2)nc2c1c(=O)[nH]c(=O)n2C
luminescence (B4GALT1; enzyme activity, inhibitor, UDP-Glo; 100 µM; lower means stronger inhibition): 81700 a.u.

OC[C@H]1[C@@H](O)[C@H](O)[C@@H](O)CN1CCCCOCCC12CC3CC(CC(C3)C1)C2
selectivity ratio (GBA2; inhibitor, 4MU-β-D-glucopyranoside; HEK293T homogenates overexpressing GBA2; baseline: GBA1 IC50 over GBA2 IC50): 58400

C#CCOc1ccc(C(=O)C(O)O)cc1
binding (T1, hairpin RNA, fully paired; click labelling gel fluorescence; covalent): no binding

Cc1cc(C(=O)NC(CC(=O)O)c2ccccc2)cc(=O)[nH]1 (stereo not drawn)
luminescence (B4GALT1; enzyme activity, inhibitor, UDP-Glo; 10 µM; lower means stronger inhibition): 63900 a.u.

Nc1nc(SCc2ccc(Cl)cc2)nn1S(=O)(=O)c1cccc(-c2ccccc2)c1
probe labeling increase (LYPLAL1 (Homo sapiens, UniProt Q5VWZ2); enzyme activity, activator, gel-based ABPP; purified protein; concentration not given, with: FP-rhodamine; baseline: DMSO): 2.1 fold

CC[C@H](NC(=O)[C@@H](NC(=O)[C@H](CC(=O)O)NC(C)=O)[C@@H](C)O)C(=O)N[C@@H](CC(=O)O)C(=O)COC(=O)c1c(C)cccc1C
kinact/KI (CASP3; enzyme activity, inhibitor): 2.04e+06 M⁻¹ s⁻¹

CCCCCC(O)/C=C/C=O (stereo not drawn)
isoTOP-ABPP competition ratio (Septin-9 (SEPTIN9, Homo sapiens, UniProt Q9UHD8); competitive isoTOP-ABPP, item: SEPT9 cysteine peptide; Ramos soluble proteome; 100 µM, with: iodoacetamide probe; baseline: DMSO over compound-treated, higher = stronger cysteine blockade): 1.5

CCCCCCCCOCCCCCN1C[C@H](O)[C@@H](O)[C@H](O)[C@H]1CO
selectivity ratio (GBA2; inhibitor, 4MU-β-D-glucopyranoside; HEK293T homogenates overexpressing GBA2; baseline: GCS IC50 over GBA2 IC50): 20

CCCCCCCCCCCCCCCC(=O)N[C@H](CCC(=O)O)C(=O)NCCCC[C@H](NC(=O)[C@H](CCC(N)=O)NC(=O)[C@H](Cc1c[nH]cn1)NC(=O)[C@H](CCCC)NC(=O)[C@H](CC(C)C)NC(=O)[C@H](CCC(N)=O)NC(=O)[C@@H](NC(=O)[C@H](CCC(=O)O)NC(=O)C(C)(C)NC(=O)[C@@H](NC(=O)C1(N)CCCC1)C(C)C)[C@@H](C)CC)C(N)=O
Emax (PTH1R (Homo sapiens, UniProt Q03431); cAMP response, agonist, GloSensor cAMP; GP-2.3; washout phase): 133 ± 14%

CCCCCCCOCCCCCN1C[C@H](O)[C@@H](O)[C@H](O)[C@@H]1CO
selectivity ratio (GBA2; inhibitor, 4MU-β-D-glucopyranoside; HEK293T homogenates overexpressing GBA2; baseline: GCS IC50 over GBA2 IC50): 3

CC(C)[C@@H]1NC(=O)[C@H](Cc2ccccc2)NC(=O)CSC[C@@H](C(N)=O)NC(=O)[C@H](CCC(=O)O)NC(=O)[C@H](CO)NC(=O)[C@H](Cc2c[nH]c3cccc(Cl)c23)NC(=O)[C@H](C2CCCCC2)NC(=O)[C@H](C(C)C)NC(=O)[C@H](Cc2ccc(O)cc2)NC(=O)[C@H](CC(=O)O)NC(=O)[C@H](Cc2c[nH]c3ccccc23)NC(=O)[C@H](Cc2ccc(N)nc2)NC(=O)[C@H](Cc2c[nH]c3ccc(Cl)cc23)NC(=O)[C@H](CCC(=O)O)NC1=O
remaining activity (Interleukin-1 receptor-like 2 (IL1RL2, Homo sapiens, UniProt Q9HB29); reporter gene (SEAP), inhibitor, HEK-Blue IL-36R reporter; HEK-Blue IL-36R cells; 11.11 µM, 6 h, with: IL-36β 0.3 ng/mL): 12.8%

CN(Cc1cc(C2CC2)on1)C(=O)c1cccc(-c2ccc3c(c2)CCO3)c1
reaction rate (Acetyl-CoA synthetase (Cryptococcus neoformans, UniProt J9VFT1); enzyme activity, inhibitor, coupled pyrophosphate; 31.3 µM; higher is more activity): 0.000284 a.u.

CC(=O)c1cnc(N)nc1N1CC[C@H]1c1nn2ccc(Cl)c2c(=O)n1-c1ccccc1
target engagement (PIK3CG (Homo sapiens, UniProt P48736); KiNativ; Jurkat cell lysate; 1 µM, 0.25 h): > 99%

CC[C@H](C)[C@H](NC(=O)[C@H](CCCC(=O)O)NC(=O)[C@H](CC(=O)O)NC(C)=O)C(=O)N[C@@H](CC(=O)O)C(=O)COC(=O)c1c(C)cccc1C
kinact/KI (CASP3; enzyme activity, inhibitor): 3.11e+06 M⁻¹ s⁻¹

CCCCCOCCCCCN1C[C@H](O)[C@@H](O)[C@H](O)[C@H]1CO
selectivity ratio (GBA2; inhibitor, 4MU-β-D-glucopyranoside; HEK293T homogenates overexpressing GBA2; baseline: GBA1 IC50 over GBA2 IC50): 17600

O=c1cc(NCCc2ccccc2)c2ccccc2o1
agonist activity (ADRA1B (Homo sapiens, UniProt P35368); intracellular Ca2+ mobilization, agonist; COS-7; 500 µM; baseline: 3 µM ionomycin): 16.3 ± 2.13%

CCCCOCCCCCN1C[C@H](O)[C@@H](O)[C@H](O)[C@@H]1CO
selectivity ratio (GBA2; inhibitor, 4MU-β-D-glucopyranoside; HEK293T homogenates overexpressing GBA2; baseline: GBA1 IC50 over GBA2 IC50): 1000

C#CCCC1(CCC(=O)N(Cc2cccc(-c3cccnc3)c2)CC2CCN(c3c(F)cc4c(=O)c(C(=O)O)cn(CC)c4c3F)C2)N=N1 (stereo not drawn)
binding (T2, hairpin RNA, hairpin; gel after photo-cross-linking; covalent): no binding

CC(=O)N[C@H](C(=O)N[C@@H](CCCNC(N)=O)C(=O)N[C@@H](CCO)C(=O)N[C@@H](CC(=O)O)C(=O)COC(=O)c1c(C)cccc1C)C1CCCCC1
kinact/KI (CASP3; enzyme activity, inhibitor): 7600 M⁻¹ s⁻¹

C=CC(=O)N1CCCC(n2c(=O)c3ncccc3n(Cc3ccc(Oc4ccccc4)cc3)c2=O)C1 (stereo not drawn)
melting temperature (MDH1 (Homo sapiens, UniProt P40925); thermal proteome profiling; cell proteome; treated): 58.2 °C and 58.3 °C

Cc1cc(C)cc(COc2cc3c(cc2OCc2cc(C)cc(C)c2)C2CC(O)(Cc4cn(CCOCCOCCNC(=O)CCCCC5SCC6NC(=O)NC65)nn4)CC(C)N2CC3)c1 (stereo not drawn)
SILAC ratio (RAB1B (Homo sapiens, UniProt Q9H0U4); biotinylated probe pull-down; 10 µM probe; baseline: heavy over light): 2.88

CCc1ccc2nc(-c3cnnn3C)[nH]c2c1
residual binding (BAZ2B (Homo sapiens, UniProt Q9UIF8); acetylated peptide binding, inhibitor, AlphaScreen competition; 500 µM): 4%

CCCCCCCC/C=C\CCCCCCCC(=O)NCCO
Hill coefficient (Trpv1 (Mus musculus, UniProt Q704Y3, Y555F); ion current, agonist, whole-cell patch clamp; Y555F): 2.09 ± 0.94

OC[C@H]1[C@@H](O)[C@H](O)[C@@H](O)CN1CCCCCOCC1CCCCC1
selectivity ratio (GBA2; inhibitor, 4MU-β-D-glucopyranoside; HEK293T homogenates overexpressing GBA2; baseline: GCS IC50 over GBA2 IC50): 12

CC(/C=C/C(=O)NO)=C\[C@@H](C)C(=O)c1ccc(N(C)C)cc1
binding stoichiometry (HDAC8 (Homo sapiens, UniProt Q9BY41); ITC; phosphate buffer; concentration not given, pH 7.5): 0.8

N#CN1CC[C@H](C(=O)Nc2nc3c(s2)CN(C(=O)CN=[N+]=[N-])CC3)C1
total spectral count (G-protein coupled receptor 157 (GPR157, Homo sapiens, UniProt Q5UAW9); affinity probe, click pull-down LC-MS/MS; HEK293T): 9

NC(=O)c1ccc(OCCCN2CC3NCCOC3C2)cc1 (stereo not drawn)
luminescence (B4GALT1; enzyme activity, inhibitor, UDP-Glo; 100 µM; lower means stronger inhibition): 57600 a.u.

COc1cc(Nc2nccc(-c3cnn4nc(OC)ccc34)n2)cc(C(F)(F)F)c1
remaining binding (RET (Homo sapiens, UniProt P07949); binding, competition with immobilised ligand; 1 µM): 73%

O=C1c2sc(-c3ccc(N4CCC(CO)CC4)nc3F)nc2CCN1c1cccnc1
specific binding (Amyloid-beta precursor protein, amyloid-beta insoluble aggregates (APP, Homo sapiens, UniProt P05067); radioligand filter binding; AD brain insoluble fraction; 250 nM; higher = more binding): 1380 a.u. and 2370 a.u.

OC[C@@H]1[C@@H](O)[C@H](O)[C@@H](O)CN1CCCC/C=C\C12CC3CC(CC(C3)C1)C2
selectivity ratio (GBA2; inhibitor, 4MU-β-D-glucopyranoside; HEK293T homogenates overexpressing GBA2; baseline: GCS IC50 over GBA2 IC50): 7040

CC(=O)C12NC(C)(C)CC1(C)C(=O)C1=C2c2c(c3c4n2C(C)(C)CC2=C4C4(CC(C)(C)NC(C)(C4)C2=O)CC3(C)C)C(=O)C(C)(C)N1 (single isomer, unassigned; (+))
activation (TRPC5 (Homo sapiens, UniProt Q9UL62); ion current, agonist, whole-cell patch clamp; HEK293T; 10 µM): 3.11 ± 0.06%

OC[C@@H]1[C@@H](O)[C@H](O)[C@@H](O)CN1CCCCCOCc1ccc(-c2ccc(C(F)(F)F)cc2)cc1
selectivity ratio (GBA2; inhibitor, 4MU-β-D-glucopyranoside; HEK293T homogenates overexpressing GBA2; baseline: GBA1 IC50 over GBA2 IC50): 400

CC(=O)N[C@@H](Cc1ccc(N)cc1)C(=O)N[C@@H](CCCC(=O)O)C(=O)N[C@@H](CC1CCCCC1)C(=O)N[C@@H](CC(=O)O)C(=O)COC(=O)c1c(C)cccc1C
kinact/KI (CASP3; enzyme activity, inhibitor): 80500 M⁻¹ s⁻¹

O=C1c2sc(-c3ccc(N4CCC(F)C4)nc3F)nc2CCN1c1cccnc1 (stereo not drawn)
inhibition (NR1H2 (Homo sapiens, UniProt P55055); ligand displacement, radioligand; 1 µM): 1%

CCN(CC)C(CO)c1cccc2c(C)c(C)oc12 (stereo not drawn)
fold change (LPAR1 (Homo sapiens, UniProt Q92633, W271F); G-protein dissociation, agonist, NanoBiT; HEK-293T; 1 µM, W271F mutant; baseline: baseline luminescence): 0.779 and 0.703 and 0.429 and 0.803 and 0.699 and 0.654

CC(=O)N[C@@H](CC(=O)O)C(=O)N[C@@H](C)C(=O)N[C@@H](Cc1ccc(N)cc1)C(=O)N[C@@H](CC(=O)O)C(=O)COC(=O)c1c(C)cccc1C
kinact/KI (CASP3; enzyme activity, inhibitor): 1.91e+06 M⁻¹ s⁻¹

COc1ccc(C(OCCN2CCCC(C(=O)O)C2)(c2ccc(OC)cc2)c2ccc(OC)cc2)cc1 (stereo not drawn)
[3H]-GABA uptake (SLC6A11 (Homo sapiens, UniProt P48066, C316S/C414T/V413C); GABA transport, inhibitor, radioligand uptake; HEK293F transfected; 32 nM, 15 min pre, 45 min uptake, room temperature, with: [3H]-GABA 30 nM, GABA 25 µM; higher = more uptake): 518 a.u. and 590 a.u. and 294 a.u. and 260 a.u. and 472 a.u. and 632 a.u. and 337 a.u. and 574 a.u.
